Published values of several laboratories.
Numbers after ± are the reported error.

COc1ccccc1-c1n[nH]c2nc(NC3CCN(C(=O)Cc4ccc(F)cc4F)CC3)ncc12 — relative abundance (bead binding, competition bead pull-down, item: LINJ.35.3150; Leishmania donovani extract; 10 µM; reference: vehicle): 0.98
Cc1ccccc1-c1ccc(-c2nc(-c3ccc(CN(C)CCCC(=O)O)c([18F])c3)no2)cc1C(F)(F)F — tracer uptake (rat, kidney; 5 min): 2.09 %ID/g
CS(C)(=O)=Nc1ccc(-c2ccc(-c3nc4cc(O[C@@H]5CO[C@H]6[C@@H]5OC[C@H]6O)[nH]c4cc3F)cc2)cc1 — inhibition (PAK2 (Homo sapiens, UniProt Q13177); enzyme activity, inhibitor; 10 µM): 0%
CSCC[C@H](NC(=O)CNC(=O)[C@H](CCCCN)NC(=O)[C@H](CC(C)C)NC(=O)[C@@H]1CCCN1C(=O)[C@H](CO)NC(=O)[C@H](Cc1c[nH]cn1)NC(=O)[C@H](Cc1c[nH]c2ccccc12)NC(=O)[C@H](CCCNC(=N)N)NC(=O)[C@H](CC(C)C)NC(=O)[C@H](CCCNC(=N)N)NC(=O)[C@H](Cc1c[nH]c2ccccc12)NC(=O)[C@H](CS)NC(=O)CCCCCNC(=O)CN1CCN(CC(=O)O)CCN(CC(=O)O)CCN(CC(=O)O)CC1)C(=O)O [copper-64 labelled] — tumour-to-blood ratio (C57BL/6J mice, B16-F10 tumour; intravenous, 1.85 MBq, 30 h; reference: tumour over blood): 3.1
N=C(N)NCCC[C@@H](NC(=O)[C@H](N)Cc1c[nH]c2ccccc12)C(=O)N[C@H](CCCCN)C(=O)N[C@H](Cc1c[nH]c2ccccc12)C(=O)N[C@H](CCCNC(=N)N)C(=O)N[C@H](CCCCN)C(=O)N[C@H](Cc1c[nH]c2ccccc12)C(=O)N[C@H](CCCNC(=N)N)C(=O)N[C@H](CCCCN)C(=O)N[C@H](Cc1c[nH]c2ccccc12)C(=O)N[C@H](CCCNC(=N)N)C(=O)N[C@H](CCCCN)C(N)=O — survival (mouse; intraperitoneal, 20 mg/kg single dose, day 7): 100%
Cc1nc2cccc(OCC(C)(C)C(=O)NC(C)C)c2c(N)c1C(=O)[O-].[Na+] — revertant colonies per plate (Salmonella typhimurium; TA100; 0.80 mg per plate, with S9, plate incorporation): 115 ± 9
CC[C@H](C)[C@H](NC(=O)[C@H](CCCCN)NC(=O)CNC(=O)[C@H](CC(C)C)NC(=O)[C@H](Cc1ccccc1)NC(=O)[C@H](CCCCN)NC(=O)[C@H](CO)NC(=O)[C@H](Cc1ccccc1)NC(=O)[C@H](Cc1c[nH]c2ccccc12)NC(=O)[C@H](CCC(N)=O)NC(=O)[C@@H](NC(=O)[C@H](Cc1ccccc1)NC(=O)CCCCCNC(=O)CN1CCN(CC(=O)O)CCN(CC(=O)O)CCN(CC(=O)O)CC1)C(C)C)C(=O)N[C@@H](CCC(=O)O)C(=O)N1CCC[C@H]1C(=O)N[C@@H](CC(=O)O)C(=O)N[C@H](C(=O)N[C@@H](CO)C(=O)N[C@@H](CCC(N)=O)C(=O)N[C@H](C(=O)N[C@@H](CCC(N)=O)C(=O)N[C@@H](CC(=O)O)C(=O)N1CCC[C@H]1C(=O)N[C@@H](CC(N)=O)C(=O)N[C@@H](CC(=O)O)C(=O)N[C@@H](CCC(N)=O)C(=O)N[C@@H](Cc1ccc(O)cc1)C(=O)N[C@@H](CCC(=O)O)C(=O)N1CCC[C@H]1C(=O)N[C@@H](Cc1ccccc1)C(=O)O)C(C)C)C(C)C [copper-64 labelled] — tissue uptake (C57BL/6 mice, male, tumour-free, pancreas; 2 h): 1.77 ± 0.6 %ID/g
CC(C)(C)C(=O)OCOP(=O)(OCOC(=O)C(C)(C)C)C1CCCN(O)C1=O (stereo not drawn) — log GI50 (SNB-19): -6.26 log M
CCCC[C@@H]1NC(=O)[C@H](Cc2ccc(O)cc2)NC(=O)[C@@H]2CCCN2C(=O)[C@H](CC(=O)O)NC(=O)[C@H](C)NC(=O)[C@H](Cc2ccccc2)NC(=O)[C@@H]2CSCCC(=O)N3CN(CN(C3)C(=O)CCSC[C@@H](C(=O)N[C@@H](C)C(N)=O)NC1=O)C(=O)CCSC[C@H](NC(C)=O)C(=O)N[C@@H](CC(C)(C)C)C(=O)N1CCC[C@H]1C(=O)N[C@@H](CCC(=O)O)C(=O)N[C@H](CCCCNC(=O)CCc1cn(CCOCCOCCOCCN(CCOCCOCCOCCC(=O)N[C@H]3CSCCC(=O)N4CN5CN(C4)C(=O)CCSC[C@H](NC(=O)[C@@H](CC(=O)O)NC(=O)[C@H](Cc4cccc6ccccc46)NC(=O)[C@@H]4CCCN4C3=O)C(=O)N[C@@H](CCSC)C(=O)N[C@@H](CCCCNC(=N)N)C(=O)N[C@@H](CC(=O)O)C(=O)N[C@@H](Cc3c[nH]c4ccccc34)C(=O)N[C@@H](CO)C(=O)N[C@@H]([C@@H](C)O)C(=O)N3CCC[C@H]3C(=O)N3C[C@H](O)C[C@H]3C(=O)N[C@@H](Cc3c[nH]c4ccccc34)C(=O)N[C@H](C(N)=O)CSCCC5=O)CCOCCOCCOCCn3cc(CCC(=O)NCCCC[C@H]4NC(=O)[C@H](CCC(=O)O)NC(=O)[C@@H]5CCCN5C(=O)[C@H](CC(C)(C)C)NC(=O)[C@@H](NC(C)=O)CSCCC(=O)N5CN6CN(C5)C(=O)CCSC[C@H](NC(=O)[C@H](Cc5ccc(O)cc5)NC(=O)[C@@H]5CCCN5C4=O)C(=O)N[C@@H](Cc4ccccc4)C(=O)N[C@@H](C)C(=O)N[C@@H](CC(=O)O)C(=O)N4CCC[C@H]4C(=O)N[C@@H](Cc4ccc(O)cc4)C(=O)N[C@@H](CCCC)C(=O)N[C@H](C(=O)N[C@@H](C)C(N)=O)CSCCC6=O)nn3)nn1)C(=O)N1CCC[C@H]1C(=O)N[C@@H](Cc1ccc(O)cc1)C(=O)N2 — CL (Sprague-Dawley rat): 8.5 ± 1.5 mL/min/kg
CCCCCCCCCCCCCCCC(=O)N[C@@H](CCC(=O)NCCOCCOCCC(=O)NCCOCCOCCC(=O)NCCCC[C@H](NC(=O)[C@H](CC(=O)O)NC(=O)[C@H](CC(C)C)NC(=O)[C@H](Cc1ccc(O)cc1)NC(=O)[C@H](CCCCN)NC(=O)[C@H](CO)NC(=O)[C@H](Cc1ccc(O)cc1)NC(=O)[C@H](CC(=O)O)NC(=O)[C@H](CO)NC(=O)[C@@H](NC(=O)[C@H](Cc1ccccc1)NC(=O)[C@@H](NC(=O)CNC(=O)[C@H](CCC(N)=O)NC(=O)[C@@H](CO)NC(=O)[C@@H](N)Cc1c[nH]cn1)[C@@H](C)O)[C@@H](C)O)C(=O)N[C@@H](CCCNC(=N)N)C(=O)N[C@@H](CCCNC(=N)N)C(=O)N[C@@H](C)C(=O)N[C@@H](CCC(N)=O)C(=O)N[C@@H](CC(=O)O)C(=O)N[C@@H](Cc1ccccc1)C(=O)N[C@H](C(=O)N[C@@H](CCC(N)=O)C(=O)N[C@@H](Cc1c[nH]c2ccccc12)C(=O)N[C@@H](CC(C)C)C(=O)N[C@@H](CC(C)C)C(=O)N[C@@H](CC(N)=O)C(=O)N[C@H](C(=O)NCC(=O)NCC(=O)N1CCC[C@H]1C(=O)N[C@@H](CO)C(=O)N[C@@H](CO)C(=O)NCC(=O)N[C@@H](C)C(=O)N1CCC[C@H]1C(=O)N1CCC[C@H]1C(=O)N1CCC[C@H]1C(=O)N[C@@H](CO)C(N)=O)[C@@H](C)O)C(C)C)C(=O)O — serum enzyme activity (item: ALT; Sprague-Dawley rat, female; subcutaneous, 20 µg/kg once daily, 14 days): 30.6 ± 4 U/L
C[C@@H](Oc1ccc2c(c1)[C@H]1CCN[C@@]1(C)CO2)c1ccccc1 — -log Pe (lipid PAMPA; 10 µM, 16 h, pH 7.4, 25 °C): 5.7
O=C1NC2(CC2)COc2ncc(F)cc2[C@H]2COCCN2c2ccn3ncc1c3n2 — albumin/globulin ratio (Sprague-Dawley rat, female, serum; oral, 20 mg/kg/day, end of treatment, 4-week repeated-dose toxicity): 1.11 ± 0.35
N#[11C]c1ccc(-c2csc(NN=C3CCCC3)n2)cc1 — radioactivity uptake (C57BL/6 mice, male, muscle; intravenous, 3 MBq, 60 min): 0.68 ± 0.1 %ID/g
CN(C)[C@H]1C[C@@]23CC[C@@]4(O2)C(=CC[C@]2(C)[C@@H](c5ccc6ccncc6c5)CC[C@H]24)C=C3[C@@H](O)[C@@H]1O — inhibition (Diacylglycerol kinase eta (DGKH, Homo sapiens, UniProt Q86XP1); ATP probe labelling, inhibitor, KiNativ profiling; 1 µM): -8.6%
COc1cnc2cccc(N3CCc4c(cc(Cn5ccnc5)cc4-c4cn(C)nc4C(F)(F)F)C3=O)c2c1 — body weight change (CD-1 mouse; intraperitoneal, 100 mg/kg once daily, day 2, dose-escalation tolerability; reference: day 1): 2.2%
O=C1NC(=O)c2c1c1cc(F)c[n+]3c1c1c2c2cc(O)ccc2[n]1[Ru-4]312([N]=C=S)[S+]3CC[S+]1CC[S+]2CC3 (stereo not drawn) — remaining activity (CAMK1 (Homo sapiens, UniProt Q14012); enzyme activity; 100 nM, human enzyme, added: 10 µM ATP; reference: untreated): 79%
CC1(C)C(=O)N(c2ccc(C#N)c(C(F)(F)F)c2)C(=S)N1c1ccc(C(N)=O)c(F)c1 — half-life (human, male, plasma; oral, 160 mg, single dose, fasting): 10.2 ± 3.9 days
CC(=O)NCCCC[C@@H]1NC(=O)[C@H](Cc2c[nH]c3c(C)cccc23)NC(=O)[C@H]([C@@H](C)O)NC(=O)[C@H](CC(N)=O)NC(=O)[C@@H](NC(C)=O)C(C)(C)SSC(C)(C)[C@@H](C(=O)N[C@@H](Cc2ccc(OCCN)cc2)C(=O)N[C@@H](Cc2ccc3ccccc3c2)C(=O)NC2(C(=O)N[C@@H](CCC(=O)O)C(=O)N[C@@H](CC(N)=O)C(=O)N[C@@H](Cc3cccnc3)C(=O)N(C)CC(N)=O)CCOCC2)NC1=O — unbound fraction (equilibrium dialysis; albumin plus glycoprotein; 1 µM, albumin 4%, glycoprotein 0.07%): 62.9 ± 3.7%

For quick reference, copied from above:
CCCC[C@@H]1NC(=O)[C@H](Cc2ccc(O)cc2)NC(=O)[C@@H]2CCCN2C(=O)[C@H](CC(=O)O)NC(=O)[C@H](C)NC(=O)[C@H](Cc2ccccc2)NC(=O)[C@@H]2CSCCC(=O)N3CN(CN(C3)C(=O)CCSC[C@@H](C(=O)N[C@@H](C)C(N)=O)NC1=O)C(=O)CCSC[C@H](NC(C)=O)C(=O)N[C@@H](CC(C)(C)C)C(=O)N1CCC[C@H]1C(=O)N[C@@H](CCC(=O)O)C(=O)N[C@H](CCCCNC(=O)CCc1cn(CCOCCOCCOCCN(CCOCCOCCOCCC(=O)N[C@H]3CSCCC(=O)N4CN5CN(C4)C(=O)CCSC[C@H](NC(=O)[C@@H](CC(=O)O)NC(=O)[C@H](Cc4cccc6ccccc46)NC(=O)[C@@H]4CCCN4C3=O)C(=O)N[C@@H](CCSC)C(=O)N[C@@H](CCCCNC(=N)N)C(=O)N[C@@H](CC(=O)O)C(=O)N[C@@H](Cc3c[nH]c4ccccc34)C(=O)N[C@@H](CO)C(=O)N[C@@H]([C@@H](C)O)C(=O)N3CCC[C@H]3C(=O)N3C[C@H](O)C[C@H]3C(=O)N[C@@H](Cc3c[nH]c4ccccc34)C(=O)N[C@H](C(N)=O)CSCCC5=O)CCOCCOCCOCCn3cc(CCC(=O)NCCCC[C@H]4NC(=O)[C@H](CCC(=O)O)NC(=O)[C@@H]5CCCN5C(=O)[C@H](CC(C)(C)C)NC(=O)[C@@H](NC(C)=O)CSCCC(=O)N5CN6CN(C5)C(=O)CCSC[C@H](NC(=O)[C@H](Cc5ccc(O)cc5)NC(=O)[C@@H]5CCCN5C4=O)C(=O)N[C@@H](Cc4ccccc4)C(=O)N[C@@H](C)C(=O)N[C@@H](CC(=O)O)C(=O)N4CCC[C@H]4C(=O)N[C@@H](Cc4ccc(O)cc4)C(=O)N[C@@H](CCCC)C(=O)N[C@H](C(=O)N[C@@H](C)C(N)=O)CSCCC6=O)nn3)nn1)C(=O)N1CCC[C@H]1C(=O)N[C@@H](Cc1ccc(O)cc1)C(=O)N2 — CL (Sprague-Dawley rat): 8.5 ± 1.5 mL/min/kg
CCCCCCCCCCCCCCCC(=O)N[C@@H](CCC(=O)NCCOCCOCCC(=O)NCCOCCOCCC(=O)NCCCC[C@H](NC(=O)[C@H](CC(=O)O)NC(=O)[C@H](CC(C)C)NC(=O)[C@H](Cc1ccc(O)cc1)NC(=O)[C@H](CCCCN)NC(=O)[C@H](CO)NC(=O)[C@H](Cc1ccc(O)cc1)NC(=O)[C@H](CC(=O)O)NC(=O)[C@H](CO)NC(=O)[C@@H](NC(=O)[C@H](Cc1ccccc1)NC(=O)[C@@H](NC(=O)CNC(=O)[C@H](CCC(N)=O)NC(=O)[C@@H](CO)NC(=O)[C@@H](N)Cc1c[nH]cn1)[C@@H](C)O)[C@@H](C)O)C(=O)N[C@@H](CCCNC(=N)N)C(=O)N[C@@H](CCCNC(=N)N)C(=O)N[C@@H](C)C(=O)N[C@@H](CCC(N)=O)C(=O)N[C@@H](CC(=O)O)C(=O)N[C@@H](Cc1ccccc1)C(=O)N[C@H](C(=O)N[C@@H](CCC(N)=O)C(=O)N[C@@H](Cc1c[nH]c2ccccc12)C(=O)N[C@@H](CC(C)C)C(=O)N[C@@H](CC(C)C)C(=O)N[C@@H](CC(N)=O)C(=O)N[C@H](C(=O)NCC(=O)NCC(=O)N1CCC[C@H]1C(=O)N[C@@H](CO)C(=O)N[C@@H](CO)C(=O)NCC(=O)N[C@@H](C)C(=O)N1CCC[C@H]1C(=O)N1CCC[C@H]1C(=O)N1CCC[C@H]1C(=O)N[C@@H](CO)C(N)=O)[C@@H](C)O)C(C)C)C(=O)O — serum enzyme activity (item: ALT; Sprague-Dawley rat, female; subcutaneous, 20 µg/kg once daily, 14 days): 30.6 ± 4 U/L
